Results of several laboratories.
Compare with care: the assays were run in different laboratories. Numbers after ± are the reported error.
SLC10A2: Ileal sodium/bile acid cotransporter (SLC10A2, Homo sapiens, UniProt Q12908)

[3H]C([3H])([3H])c1cnccc1CN1C[C@@H](c2cc(F)c(F)c(F)c2)CC1=O — total binding (Synaptic vesicle glycoprotein 2A (SV2A, Homo sapiens, UniProt Q7L0J3); radioligand binding, autoradiography; human, post-mortem insula; 5 nM): 288 fmol/mg
CCC(=C(c1ccc(O)cc1)c1ccc(OCCN(C)CCOCCOCCOCCOCCOCCN(C)CCOc2ccc(C(=C(CC)c3ccccc3)c3ccc(O)cc3)cc2)cc1)c1ccccc1 (mixture of isomers) — relative binding affinity (Estrogen receptor beta (ESR2, Homo sapiens, UniProt Q92731); radioligand competition binding; concentration not given, Z-Z/Z isomer form, added: [3H]estradiol tracer; baseline: estradiol): 12.8 ± 2%
CC(=C(c1ccc(Cl)cc1)c1ccc(OCCN2CCCCC2)cc1)c1ccc(Cl)cc1 — fold activation (Estrogen receptor (ESR1, Homo sapiens, UniProt P03372); reporter gene, agonist, yeast estrogen screen; 1 µM; baseline: DMSO): 1.09 ± 0.2 fold
CCCNCC(=O)O — β-sheet content (Albumin (ALB, Homo sapiens, UniProt P02768); circular dichroism; 0.12 mM): 17.3%
O=c1[nH]cnc2c(CN3C[C@@H](O)[C@H](O)C3)c[nH]c12 — binding free energy (Purine nucleoside phosphorylase (PNP, Homo sapiens, UniProt P00491); first subunit): -13.5 ± 0.5 kcal/mol
CN(C)CCCOc1ccc2cc(CN)ccc2c1 — Km (Primary amine oxidase, liver isozyme (Bos taurus, UniProt Q29437); substrate, fluorescence; pH 7.2, 30 °C): 0.163 ± 0.012 µM
C=CCCCCCCO[C@@H]1O[C@H](CO)[C@H](O)[C@H](O[C@@H]2O[C@H](CO)[C@H](O)[C@H](O)[C@H]2O[C@@H]2O[C@@H](C)[C@@H](O)[C@@H](O)[C@@H]2O)[C@H]1O — kon (Histo-blood group ABO system transferase (ABO, Homo sapiens, UniProt P16442, G235S/G268A/L266M/R176G); methyl-TROSY NMR titration lineshape analysis; apo enzyme): 2e+06 M⁻¹ s⁻¹
O=C1C(=O)c2cccnc2-c2ncccc21 — log(Emax/EC50) (Taste receptor type 2 member 5 (TAS2R5, Homo sapiens, UniProt Q9NYW4); intracellular calcium, agonist; D9 cells expressing TAS2R5): 8.2
CCc1cc2c(Nc3cn[nH]c3)ncnc2s1 — protein occupancy (Mitogen-activated protein kinase 10 (MAPK10, Homo sapiens, UniProt P53779); native mass spectrometry; 100 µM): 68.6%
Nc1nc2cc(CC[C@H]3C[C@@H](n4ccc5c(N)ncnc54)[C@H](O)[C@@H]3O)ccc2cc1Br — koff (Protein arginine N-methyltransferase 5, with WDR77 (PRMT5, Homo sapiens, UniProt O14744); binding, SPR): < 0.000396 s⁻¹
COc1ccc(C(=O)c2c(C(=O)NCCCN(C)C)oc3ccc(Cl)cc3c2=O)cc1OC — calcium mobilization (Growth hormone secretagogue receptor type 1 (GHSR, Homo sapiens, UniProt Q92847); agonist; Gαq/11 knockout HEK293 cells; 10 µM; baseline: wild-type cells): inhibited
CCc1nc2cc3ccccc3cc2cc1C(=O)N1CCC[C@H]1C(=O)N[C@@H](C/C=C/C[C@H](NC(=O)[C@@H]1CCCN1C(=O)c1cc2cc3ccccc3cc2nc1CC)C(=O)N[C@@H](CCCCN)C(=O)NCCCN)C(=O)N[C@@H](CCCCN)C(=O)NCCCN — residence time ((CCUG)10 RNA; SPR): 231 s
CC1=C(/C=C/C(C)=C\C=C\C(C)=C\C=O)C(C)(C)CCC1 — cell surface expression (Rhodopsin (RHO, Homo sapiens, UniProt P08100, P23H); pharmacological chaperone, immunostaining, nonpermeabilized cells; 661W; 2.5 µM, 16 h; baseline: untreated cells): ~3 fold
CC(=O)N[C@@H](COP(=O)(O)O)C(=O)N1CCC[C@H]1C(=O)N[C@H](C(=O)N[C@@H](Cc1ccccc1)C(N)=O)[C@@H](C)O — heat capacity change (Breast cancer type 1 susceptibility protein, tandem BRCT domains (BRCA1, Homo sapiens, UniProt P38398); binding, isothermal titration calorimetry; concentration not given): -303 ± 27 cal/(mol·K)
O=C([O-])CN(CCN(CC(=O)[O-])Cc1cc(CCC(=O)NCCCCCC(=O)NCCCC[C@H](NC(=O)N[C@@H](CCC(=O)O)C(=O)O)C(=O)O)ccc1O)Cc1cc(CCC(=O)O)ccc1[O-].[68Ga+3] — SUVmax (Glutamate carboxypeptidase 2 (FOLH1, Homo sapiens, UniProt Q04609); PET/CT; human, primary prostate lesion): ~35.3
CC(=O)N[C@@H](CCCNC(=N)N)C(=O)N[C@H](Cc1ccc(O)cc1)C(=O)N[C@@H](CCCNC(=N)NC(=O)NCCCCN)C(=O)N[C@@H](CC(C)C)C(=O)N[C@@H](CCCNC(=N)N)C(=O)N[C@@H](Cc1ccc(O)cc1)C(N)=O — intrinsic activity (Neuropeptide Y receptor type 4 (NPY4R, Homo sapiens, UniProt P50391); β-arrestin-2 recruitment, agonist; HEK293T; concentration not given, unit not given; baseline: 1 µM human pancreatic polypeptide): 0.49
Cc1nc(/N=N/c2cc3c(S(=O)(=O)O)cc([N+](=O)[O-])cc3cc2S(=O)(=O)O)c(COP(=O)(O)O)c(C=O)c1O — Hill slope (Neutrophil elastase (ELANE, Homo sapiens, UniProt P08246); enzyme activity, inhibitor, chromogenic substrate hydrolysis; pH 7.4, 37 °C, 100 mM NaCl, added: substrate S-1384): 1.7 ± 0.2
N=C(N)NCCC[C@H](NC(=O)[C@H](Cc1ccccc1)NC(=O)[C@@H](N)CO)C(=O)N[C@@H](CC(N)=O)C(=O)NCC(N)=O — maximal response (Neuropeptide S receptor (Mus musculus, UniProt Q8BZP8); calcium mobilization, agonist; HEK293T; unit not given; baseline: maximal assay window): 0.64
O=Cc1ccc(-c2cn([C@@H]3O[C@H](COP(=O)(O)OP(=O)(O)O[C@H]4O[C@H](CO)[C@H](O)[C@H](O)[C@H]4O)[C@@H](O)[C@H]3O)c(=O)[nH]c2=O)s1 — kcat/Km (Histo-blood group ABO system transferase (ABO, Homo sapiens, UniProt P16442, G268A/L266G); substrate, HPLC; baseline: natural donor): 1%
O=P(O)(O)O[C@@H]1[C@@H](O)[C@H](O)[C@H](O)[C@H](O)[C@H]1OP(=O)(O)O — ΔpKd (Inositol 1,4,5-trisphosphate-gated calcium channel ITPR1, IP3-binding core (Itpr1, Rattus norvegicus, UniProt P29994, R568Q); binding, 3H-IP3 competition; IP3-binding core, unit not given; baseline: R568Q over wild type): 0.4 ± 0.14
O=c1cc(-c2ccc(O)c(-c3c(-c4ccc(O)cc4)oc4cc(O)cc(O)c4c3=O)c2)oc2cc(O)cc(O)c12 — Vmax (PRXC1A (Armoracia rusticana, UniProt P00433); oxidation, substrate): 3.36 ± 0.6 µmol/min/mg
COc1ccc(NC(=O)CC[C@H](NC(=O)CC[C@@H](C)[C@H]2CC[C@H]3[C@@H]4[C@H](O)C[C@@H]5C[C@H](O)CC[C@]5(C)[C@H]4CC[C@]23C)C(=O)O)cn1 — Jmax (SLC10A2; transport, substrate; ASBT-MDCK cells; unit not given; baseline: taurocholate Jmax): 0.242
Cc1ccc(C)c2sc(NC(=O)C3CCN(S(=O)(=O)c4ccc(F)cc4)CC3)nc12 — enzyme activity (N-acyl-phosphatidylethanolamine-hydrolyzing phospholipase D (Homo sapiens, UniProt Q6IQ20); activator; HepG2; concentration not given, added: flame-NAPE substrate): increased
CCCCOc1ccc(C(=O)OCCN2CC=CCC2)cc1 — dissociation half-time (Muscarinic acetylcholine receptor M5 (CHRM5, Homo sapiens, UniProt P08912); recovery of [3H]NMS binding after washing; membranes; 100 µM): 0.3 ± 0.1 h
Cc1ccc(NC(=O)CCC(NC(=O)CCC(C)C2CCC3C4C(O)CC5CC(O)CCC5(C)C4CCC23C)C(=O)O)c(C)n1 (stereo not shown) — normalized Jmax/Kt (SLC10A2; transport efficiency, substrate, LC-MS/MS; ASBT-MDCK): 0.00554 µM⁻¹
CCNC(=O)[C@H]1O[C@@H](n2cnc3c(NCCCCCCCCNC(=O)CCCCCNC(=O)COc4ccc(/C=C/C5=[N+]6C(=Cc7ccc(-c8cccs8)n7[B-]6(F)F)C=C5)cc4)ncnc32)[C@H](O)[C@@H]1O — log Kd minus log IC50 (Adenosine receptor A1 (ADORA1, Homo sapiens, UniProt P30542); CRE reporter gene; CHO-A1; Gi response, added: forskolin): 1.28
CC(OCC1CCCCC1)C(NC(=O)C1CN(C(=O)c2cncs2)CC12CN(C(=O)C1CC1(C)C)C2)C(=O)N1CCOCC1 (stereo not shown) — tracer displacement (human cyclin E1 wild type:CDK2-NanoLuc; NanoBRET; HEK293T cell lysate; orthosteric site, added: tracer K-10 0.2 µM): no effect
C=CCC(=N)NCCC[C@H](N)C(=O)O — NMDA-evoked cGMP accumulation (Nitric oxide synthase 1 (Mus musculus, UniProt Q9Z0J4); adult mouse hippocampal slices; 0.1 µM, added: BAY 60-7550 1 µM): no effect

Repeated from above:
CCc1nc2cc3ccccc3cc2cc1C(=O)N1CCC[C@H]1C(=O)N[C@@H](C/C=C/C[C@H](NC(=O)[C@@H]1CCCN1C(=O)c1cc2cc3ccccc3cc2nc1CC)C(=O)N[C@@H](CCCCN)C(=O)NCCCN)C(=O)N[C@@H](CCCCN)C(=O)NCCCN — residence time ((CCUG)10 RNA; SPR): 231 s
CC1=C(/C=C/C(C)=C\C=C\C(C)=C\C=O)C(C)(C)CCC1 — cell surface expression (Rhodopsin (RHO, Homo sapiens, UniProt P08100, P23H); pharmacological chaperone, immunostaining, nonpermeabilized cells; 661W; 2.5 µM, 16 h; baseline: untreated cells): ~3 fold
CC(=O)N[C@@H](COP(=O)(O)O)C(=O)N1CCC[C@H]1C(=O)N[C@H](C(=O)N[C@@H](Cc1ccccc1)C(N)=O)[C@@H](C)O — heat capacity change (Breast cancer type 1 susceptibility protein, tandem BRCT domains (BRCA1, Homo sapiens, UniProt P38398); binding, isothermal titration calorimetry; concentration not given): -303 ± 27 cal/(mol·K)
